Results pooled from the literature.
Numbered parts are unrelated; each lists some results of a single study.

Block 1 — Strand: CGGA; technique: RNA Bind-n-Seq; form: RNA; matrix: in vitro; notes: 4-mer, random 30-nt RNA, single round; relative to: input library; direction: higher = stronger binding
Target: Eukaryotic initiation factor 4A-I (EIF4A1, Homo sapiens, UniProt P60842, residues 1-406, full length assumed)
UniProt P60842, sequence (whole entry, looked up): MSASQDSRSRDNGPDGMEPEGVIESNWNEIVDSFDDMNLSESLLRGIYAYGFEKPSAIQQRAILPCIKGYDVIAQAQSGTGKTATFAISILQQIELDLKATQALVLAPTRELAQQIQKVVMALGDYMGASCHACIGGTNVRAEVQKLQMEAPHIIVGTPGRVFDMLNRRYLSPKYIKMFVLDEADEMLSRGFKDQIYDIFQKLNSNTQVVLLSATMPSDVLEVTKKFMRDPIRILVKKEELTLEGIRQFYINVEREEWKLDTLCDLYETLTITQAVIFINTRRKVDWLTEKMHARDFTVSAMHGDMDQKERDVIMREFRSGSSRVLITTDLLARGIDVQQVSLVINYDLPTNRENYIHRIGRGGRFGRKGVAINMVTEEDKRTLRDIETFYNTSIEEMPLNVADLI
For 90 pmol, together with: 3 µM DMDA-PatA, 2 mM ADP, 2 mM phosphate: 4-mer enrichment read 0.951 fold.
For 15 pmol, together with: DMSO vehicle, 2 mM AMP-PNP: 4-mer enrichment read 0.916 fold.
For 90 pmol, together with: 3 µM iPr-DMDA-PatA, 2 mM ADP, 2 mM phosphate: 4-mer enrichment read 0.904 fold.

Block 2 — read-out: enzyme activity; mode: inhibitor; tested at: 20 µM
Target: Replicase polyprotein 1ab, polymerase (rep, Severe acute respiratory syndrome coronavirus 2, UniProt P0DTD1)
`N[C@@H](CSCCCO)C(=O)O` gave an inhibition of -7.05%.
The inhibition of `CC(C)(C)c1ccc(S(=O)(=O)Nc2ccc(Cl)cc2C(=O)c2cc[n+]([O-])cc2)cc1` is reported as 5.58%.
With `CC(=O)NC1=NN(C(C)=O)C(C)(c2ccccc2)S1` (stereo not shown) the inhibition was -4.07%.
`COP(=O)(OC)OC(c1ccc(Cl)cc1)P(=O)(OC)OC` (stereo not shown) gave an inhibition of -11.5%.
For `O=C1c2ccccc2-c2n[nH]c3cccc1c23`, the inhibition was 0.91%.
With `Cc1c(C)c2c(c(C)c1OC(=O)CCC(=O)O)CC[C@@](C)(CCC[C@H](C)CCC[C@H](C)CCCC(C)C)O2` the inhibition was -6.33%.
The inhibition of `CC[C@H](CC[C@@H](C)[C@H]1CC[C@H]2[C@@H]3CC=C4C[C@@H](O)CC[C@]4(C)[C@H]3CC[C@]12C)C(C)C` is reported as -3.79%.
`COC(=O)N[C@H](C(=O)N1CCC[C@H]1c1nc(-c2ccc3c(c2)O[C@@H](c2ccccc2)n2c-3cc3cc(-c4c[nH]c([C@@H]5CCCN5C(=O)[C@@H](NC(=O)OC)C(C)C)n4)ccc32)c[nH]1)C(C)C` has an inhibition of 0.51%.
`Cn1cc(C(=O)c2cccc3ccccc23)cc1C(=O)O` has an inhibition of 1.09%.
`CCN1CCCC(OC(=O)C(c2ccccc2)c2ccccc2)C1` (stereo not shown) gave an inhibition of -5.54%.
The inhibition of `CN1CCN(C2=Nc3ccccc3Sc3ccc(Cl)cc32)CC1` is reported as 1.88%.
For `[N-]=[N+]=N[C@]1(CO)O[C@@H](n2ccc(N)nc2=O)[C@H](O)[C@@H]1O`, the inhibition was -5%.
With `O=C(NC1CCN(CCCCC2(C(=O)NCC(F)(F)F)c3ccccc3-c3ccccc32)CC1)c1ccccc1-c1ccc(C(F)(F)F)cc1` the inhibition was -0.91%.
`O=S(=O)(c1cccc2cnccc12)N1CCCNCC1` has an inhibition of 4.65%.
`C[N+](C)(C)CCCCCNCC12CC3CC(CC(C3)C1)C2` has an inhibition of 1.45%.
`C=C[C@](C)(O)CC[C@@H]1[C@@]2(C)CCCC(C)(C)[C@@H]2CC[C@@]1(C)O` gave an inhibition of -6.05%.
With `C=C1C(=O)O[C@@H]2C[C@@]3(C)CCC[C@H](C)C3=C[C@H]12` the inhibition was -16.3%.
`CCC(=O)[C@@]1(C)[C@H](C)C[C@H]2[C@@H]3CCC4=CC(=O)C=C[C@]4(C)[C@H]3[C@@H](O)C[C@@]21C` has an inhibition of -3.94%.
`N#CCC(=O)c1ccccc1` has an inhibition of 4%.
The inhibition of `CNCCC(Oc1ccccc1OC)c1ccccc1` (stereo not shown) is reported as 1.61%.
`N[C@@H](CC(=O)NO)C(=O)O` gave an inhibition of -1.5%.
The inhibition of `Cc1noc(-c2ccc(-c3ccc(CC(=O)O)cc3)cc2)c1NC(=O)O[C@H](C)c1ccccc1` is reported as -1.81%.
For `Cc1cccc(C)c1NC1=NCCCS1`, the inhibition was 22.6%.
With `COc1cc(N)c(Cl)cc1C(=O)N[C@@H]1CCN(CCCOc2ccc(F)cc2)C[C@@H]1OC` (racemic) the inhibition was -3.57%.
For `O=C(O)c1ccc2cc(-c3ccc(O)c(C45CC6CC(CC(C6)C4)C5)c3)ccc2c1`, the inhibition was 3.2%.

Block 3 — target: Sox, HMG box (Pigoraptor chileana); technique: Spec-seq; form: double-stranded DNA, one strand shown; matrix: in vitro; tested at: not given; notes: whole probe, mean of replicates; relative to: not given; direction: lower = stronger binding; shared flanks, not repeated: GAGTCGTCTCGTCAGCAC … CCGTAGAGCACTCAGGTC
Target sequence (chain): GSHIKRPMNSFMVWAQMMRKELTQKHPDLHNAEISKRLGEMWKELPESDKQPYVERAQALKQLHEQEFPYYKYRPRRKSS
Under “relative binding energy”, `CATGAAC` is recorded as 0.178 ln ratio.
`CATGCGG` — result for “relative binding energy”: 0.598 ln ratio.
`GCGAGTT`: “relative binding energy” 1.49 ln ratio.
For `CATCCCT`, “relative binding energy” read 0.655 ln ratio.
`CAGGGTT`: “relative binding energy” 1.28 ln ratio.
`CATTCTA`: “relative binding energy” -0.523 ln ratio.

Block 4 — technique: protein-binding microarray; form: hairpin DNA; matrix: in vitro; tested at: not given; relative to: not given; direction: higher = stronger binding
Target: Cyclic AMP-responsive element-binding protein 1, full length (CREB1, Homo sapiens, UniProt P16220, residues 1-327)
UniProt P16220, sequence (whole entry, looked up): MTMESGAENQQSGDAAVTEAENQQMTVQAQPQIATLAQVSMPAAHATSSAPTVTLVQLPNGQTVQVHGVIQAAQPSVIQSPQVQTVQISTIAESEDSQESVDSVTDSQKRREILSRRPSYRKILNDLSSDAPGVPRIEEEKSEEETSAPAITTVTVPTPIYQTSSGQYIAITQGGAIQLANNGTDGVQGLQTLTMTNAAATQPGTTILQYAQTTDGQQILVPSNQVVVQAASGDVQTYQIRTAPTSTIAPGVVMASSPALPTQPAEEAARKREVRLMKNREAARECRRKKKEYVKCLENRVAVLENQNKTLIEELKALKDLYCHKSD
Notes: whole hairpin DNA, median over replicate spots
The median fluorescence of `GAGGCCGACGACGTCGTGCCTCCTGGCACGACGTCGTCGGCCTCACACTC (5mC at 9 12 15 29 35)` is reported as 3170 a.u.
For `GAGGCCGACGACGTCGTGCCTCCTGGCACGACGTCGTCGGCCTCACACTC (5mC at 9 29 35)`, the median fluorescence was 6290 a.u.
`GAGGCCGACGACGTCGTGCCTCCTGGCACGACGTCGTCGGCCTCACACTC (5mC at 9 15 35)` has a median fluorescence of 3410 a.u.

Block 5 — technique: universal PBM; form: double-stranded DNA, one strand shown; matrix: in vitro; tested at: not given; direction: higher = stronger binding
Target: Sal-like protein 4, full length isoform B (SALL4, Homo sapiens, UniProt Q9UJQ4-2, residues 1-616)
Notes: 8-mer, flanks averaged, mean of replicates
`AAACATTG` has an E-score of 0.198.
`GATGATCA` has an E-score of -0.00626.
The E-score of `GCCACCGA` is reported as -0.315.
The E-score of `GAAGATGA` is reported as 0.129.
For `ACCAATTC`, the E-score was 0.00939.
The E-score of `GTCATACA` is reported as 0.268.
For `CACGGCCG`, the E-score was -0.137.
`ATTTTTGC` has an E-score of 0.312.

Block 6 — technique: RNA Bind-n-Seq; form: RNA; matrix: in vitro; tested at: 1 µM; notes: whole 134-nt RNA, ends assumed; together with: 150 mM KCl; relative to: input library; direction: higher = stronger binding
Target: Ras GTPase-activating protein-binding protein 1, C-terminal RGG region (G3BP1, Homo sapiens, UniProt Q13283)
UniProt Q13283, sequence (whole entry, looked up): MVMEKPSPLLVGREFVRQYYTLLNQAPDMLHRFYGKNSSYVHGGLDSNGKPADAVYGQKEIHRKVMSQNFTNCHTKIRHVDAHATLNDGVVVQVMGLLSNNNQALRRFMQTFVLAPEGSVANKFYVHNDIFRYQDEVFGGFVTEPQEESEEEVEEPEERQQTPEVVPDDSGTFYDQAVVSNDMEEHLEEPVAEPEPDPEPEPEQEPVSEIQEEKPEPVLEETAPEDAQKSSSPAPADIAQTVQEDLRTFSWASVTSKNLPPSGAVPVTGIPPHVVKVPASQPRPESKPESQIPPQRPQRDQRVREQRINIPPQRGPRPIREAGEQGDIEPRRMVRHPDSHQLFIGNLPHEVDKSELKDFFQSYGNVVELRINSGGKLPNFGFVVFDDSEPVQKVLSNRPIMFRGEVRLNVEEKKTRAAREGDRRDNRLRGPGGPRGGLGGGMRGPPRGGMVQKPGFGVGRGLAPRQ
With `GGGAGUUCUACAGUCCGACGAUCUGGACUGCCUAUGGAAGAAGAAGUUCAAGAAGGAGCACGAGGAGUUUGAGACCAUGGAGAACGUGAACCGCCUUCUUCUGGAGAACGUCCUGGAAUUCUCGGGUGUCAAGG` the log2 enrichment was -1.1.
`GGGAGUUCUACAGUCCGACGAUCACCAUGCAGGUGGGCAUCUUUGGGAAGUGGGGCAAGGGGGGGAUAGGGAGGGGGGUAAUACUUUGGGAACAGGUGGUCCCAGGUCGUUUCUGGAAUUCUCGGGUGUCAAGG` has a log2 enrichment of 2.5.
`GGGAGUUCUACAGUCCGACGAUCGCAGGAAGUAAAAACAAAUGGAAAUGCUUCGGAUAGUGGCAGGGGUGGAGGUUGCUAAGGAAAGGGUGGGAUGGGAGUGGGUAAAGAGUUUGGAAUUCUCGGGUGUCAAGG` has a log2 enrichment of 0.701.
For `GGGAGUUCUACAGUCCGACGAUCUCAAGUCCUGUGCUACACAUCGUAUGUACCGAAUCGGGCCCGGCCCGGGCCCGGAAAGUAUUAUGUUACGCCGUUCGGAUCUGCACUUCCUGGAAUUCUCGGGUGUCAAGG`, the log2 enrichment was -1.5.
`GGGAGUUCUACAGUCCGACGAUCACCAUGCAGGUGGGCAUCUUUGGGAAGUGGGGCAAGGGGGGGAUAGGGAGGGGGGUAACACUUUCGGAACAGGUGGUCCCAGGUCGUUUCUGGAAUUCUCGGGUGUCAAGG` has a log2 enrichment of 2.37.
`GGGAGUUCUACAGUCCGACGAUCUGGGAGGUGGAUUUUGUUUAUUUUUUUAGCUCAUUUCCAGGGGUGGGAAUUUUUUUUUAAUAGGUGUCAUGAAUAAAGUUGUUUUUGAAAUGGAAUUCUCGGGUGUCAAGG` gave a log2 enrichment of 3.18.
For `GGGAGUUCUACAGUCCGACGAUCAAGUCCUGUGCUACACAUCGUAUGUACCGAAUCGGGGUUUUUGGGGAGGGGUGGGGAAAGUAUUAUGUUACGCCGUUCGGAUCUGCACUUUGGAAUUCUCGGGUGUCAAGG`, the log2 enrichment was 2.
`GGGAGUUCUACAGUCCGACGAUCAAGUCCUGUGCUACACAUCGUAUGUACCGAAUCGGGUUUGGGAGGGUUUUUUUGGGAAAGUAUUAUGUUACGCCGUUCGGAUCUGCACUUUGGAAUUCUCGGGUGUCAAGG` gave a log2 enrichment of 1.01.

Other studies, line by line
The GFP-positive cells of `CC(C)c1ccc2oc3nc(N)c(C(=O)O)cc3c(=O)c2c1` is reported as 67.8% (HEK-293T/ACE2; pseudovirus infection; VSV pseudotyped with SARS-CoV-2 spike; 10 µM, 16 h; relative to: vehicle-treated).
The inhibition of `CC1(C)C(/C=C/C=C/C=C/C=C2/N(CCCCS(=O)(=O)O)c3ccc4ccccc4c3C2(C)C)=[N+](CCCCS(=O)(=O)[O-])c2ccc3ccccc3c21` is reported as 65.5% (Replicase polyprotein 1ab, main protease (rep, Severe acute respiratory syndrome coronavirus 2, UniProt P0DTD1); enzyme activity, inhibitor; 20 µM, primary screen).

Some of these lines once more (block 2):
`CCN1CCCC(OC(=O)C(c2ccccc2)c2ccccc2)C1` (stereo not shown) gave an inhibition of -5.54%.
`O=S(=O)(c1cccc2cnccc12)N1CCCNCC1` has an inhibition of 4.65%.
With `CC(=O)NC1=NN(C(C)=O)C(C)(c2ccccc2)S1` (stereo not shown) the inhibition was -4.07%.
With `Cc1c(C)c2c(c(C)c1OC(=O)CCC(=O)O)CC[C@@](C)(CCC[C@H](C)CCC[C@H](C)CCCC(C)C)O2` the inhibition was -6.33%.
The inhibition of `CN1CCN(C2=Nc3ccccc3Sc3ccc(Cl)cc32)CC1` is reported as 1.88%.
`C[N+](C)(C)CCCCCNCC12CC3CC(CC(C3)C1)C2` has an inhibition of 1.45%.
